Measurements of several laboratories.
Compare with care: the assays were run in different laboratories. Numbers after ± are the reported error.

CCCC[C@@H]1NC(=O)[C@@H](NC(=O)[C@H](CCC(=O)O)NC(=O)CNC(=O)CN2CCN(CC(=O)O)CCN(CC(=O)O)CCN(CC(=O)O)CC2)CCCCNC(=O)C[C@@H](C(N)=O)NC(=O)[C@H](C(C)C)NC(=O)[C@@H]2CCCN2C(=O)[C@H](CCCNC(=N)N)NC(=O)CNC(=O)[C@H](Cc2c[nH]c3ccccc23)NC(=O)[C@H](CCCNC(=N)N)NC(=O)[C@@H](Cc2ccccc2)NC(=O)[C@H](Cc2c[nH]cn2)NC(=O)[C@H](CCC(=O)O)NC1=O [gallium-67 labelled]
tissue uptake (C57 mice with B16/F1 melanoma, bone; intravenous, 0.037 MBq, 2 h): 0.1 ± 0.01 %ID/g

Oc1c(Br)cc(Br)c2nc3cc(Br)ccc3nc12
hemolysis (human red blood cells; 200 µM, 1 h, pH 7.2, 37 °C): 1.6%

CC(C)[C@H](NC(=O)CNC(=O)[C@H](CCC(N)=O)NC(=O)[C@H](C)N)C(=O)O
AUC(0-t) (healthy volunteers, LPS endotoxaemia, plasma; intravenous, 15 mg/kg/h, 2 h infusion, geometric mean, with: LPS 2 ng/kg): 2670 ng·h/mL

C=CC(=O)Nc1cc(Nc2nccc(-c3cn(C)c4ccccc34)n2)c(OC)cc1N(C)CCNC
steady-state trough concentration (UHPLC-MS/MS; human, finger-prick dried blood spot; oral, 80 mg daily): 18 ng/mL

CN1CCC[C@]1(C)/C=C/S(=O)(=O)NC(=O)Nc1c2c(cc3c1CCC3)CCC2
AUC(0-24) (human, plasma; oral, 50 mg twice daily, day 14, multiple ascending dose): 97700 ng·h/mL

CCCC[C@H](NC(=O)CNC(=O)CNC(=O)CN1CCN(CC(=O)O)CCN(CC(=O)O)CC1)C(=O)N[C@H]1CC(=O)NCCCC[C@@H](C(N)=O)NC(=O)[C@H](Cc2c[nH]c3ccccc23)NC(=O)[C@H](CCCNC(=N)N)NC(=O)[C@@H](Cc2ccccc2)NC(=O)[C@H](Cc2c[nH]cn2)NC1=O [copper-64 labelled]
uptake ratio (female C57 mouse, B16/F1 melanoma; intravenous, 0.037 MBq, 4 h; baseline: tumour over blood): 42.4

COCCOCCOCCOCCC(=O)NCc1cc(CNC(=O)CCOCCOCCOCCOC)cc(-c2cc3cc4nc(c(-c5ccc(CCC(=O)O)cc5)c5[nH]c(cc6nc(c(OC)c2[nH]3)CC6(C)C)cc5-c2cc(CNC(=O)CCOCCOCCOCCOC)cc(CNC(=O)CCOCCOCCOCCOC)c2)CC4(C)C)c1
intersystem crossing yield (DMF; room temperature): 0.43

CNC(=O)N[C@]1(C)CCC[C@@]2(C)C3CC[C@@]4(C)C[C@]3(CCC21)CC4=O (single isomer, unassigned)
Vd/F (male Sprague-Dawley rat, plasma; oral, 2 mg/kg): 83.2 L

COC(=O)C(c1ccccc1Cl)N1CCC(SCC(=O)c2cccc(OC)c2)C(=CC(=O)O)C1 (mixture of isomers)
deviation from nominal (HPLC-MS/MS; feline EDTA plasma; 100 ng/mL, 6 h, -20 °C, storage stability): 4%

COc1cc(C)c(Cc2ccc(O)cc2)cc1[C@@H]1S[C@H](CO)[C@@H](O)[C@H](O)[C@H]1O
AUC(0-τ) ratio (Japanese T2DM patients, plasma; 5 mg luseogliflozin, day 7, once daily; baseline: compound over luseogliflozin): 0.148 ± 0.0136

O=C(Nc1nccs1)C(c1cc(F)ccc1O)N1Cc2ccccc2C1=O (stereo not shown)
recovery (mouse plasma, high QC; 1500 ng/mL, 1.5 months, -30 °C): 93.3 ± 3.1%

COC(=O)C1C(c2nc3cc(OC)ccc3[nH]2)=Cc2cc3c(cc2C1c1cc(OC)c(OC)c(OC)c1)OCO3 (stereo not shown)
CC50 (Alamar Blue; splenocytes, mouse, uninfected ex vivo splenic explants; 48 h): > 100 µM

COc1ccc(/C=C/c2ccc(-c3ccc(C)cn3)nc2)cc1
fluorescence quantum yield (MeOH; with: quinine bisulfate reference): 0.33

Cc1cc(C(=O)N[C@@H](CO)CC(C)C)ccc1CO
metabolite peak area (LC-MS; human liver microsomes; 10 µM of parent drug, 10 min, pH 7.4, with: NADPH; baseline: parent drug at time zero): 0%

CC(C)(O)c1ncc([S@](N)(=O)=NC(=O)Nc2c3c(cc4c2CCC4)CCC3)s1
Tmax (healthy human, fasted; oral, 300 mg single dose, capsule formulation): 1.5 h

Cc1ccc(OCC(=O)N(Cc2cccs2)c2ccn[nH]2)cc1
Tmax (beagle dog, male, plasma; oral gavage, 30 mg/kg): 1.67 h

CC(C)[C@H](NC(=O)[C@@H]1CCCN1C(=O)[C@H](CCCNC(=N)N)NC(=O)[C@H](CS)NC(=O)[C@H](Cc1c[nH]c2ccccc12)NC(=O)[C@H](CCCNC(=N)N)NC(=O)[C@@H](Cc1ccccc1)NC(=O)[C@H](Cc1c[nH]cn1)NC(=O)[C@H](CCC(=O)O)NC(=O)[C@H](CS)NC(=O)[C@H](CS)NC(=O)CNC(=O)[C@@H]1CC(=O)N[C@@H](CCCNC(=N)N)C(=O)NCC(=O)N[C@@H](CC(=O)O)C(=O)N[C@H](Cc2ccc(O)cc2)C(=O)N1)C(N)=O [technetium-99m labelled]
urinary excretion (female mice, B16/F1 melanoma, urine; intravenous, dose not given, 2 h, with: 10 µg NDP-MSH co-injected): 69.6 ± 23.8%

CC(C)(C)NCC(SS(=O)(=O)O)c1ccccc1 (stereo not shown)
metabolic rate constant (non-specific degradation; CD1 mouse, female, liver microsomes; 4 µM, pH 7.4, without NADPH): 0.5 h⁻¹

CC(C)(Sc1ccncc1-c1ccc(C#N)c2ccccc12)C(=O)OC1OC(C(=O)O)C(O)C(O)C1O (stereo not shown)
renal clearance (human, urine; oral, 15 mg, 72 h, severe renal impairment): 19.6 mL/min

CCCC[C@H](NC(=O)CNC(=O)CNC(=O)CN1CCN(CC(=O)O)CCN(CC(=O)O)CC1)C(=O)N[C@H]1CC(=O)NCCCC[C@@H](C(N)=O)NC(=O)[C@H](Cc2c[nH]c3ccccc23)NC(=O)[C@H](CCCNC(=N)N)NC(=O)[C@@H](Cc2ccccc2)NC(=O)[C@H](Cc2c[nH]cn2)NC1=O [gallium-67 labelled]
tumour to tissue uptake ratio (C57 mice, female, B16/F1 melanoma, tumour over muscle; intravenous, 0.037 MBq, 4 h): 54.7

N=C(N)NCCC[C@@H]1NC(=O)[C@H](Cc2c[nH]c3ccccc23)NC(=O)[C@@H](CC2CCCCC2)NC(=O)[C@@H]2CCCN2C(=O)[C@@H](NC(=O)CCc2ccccc2)CCCNC1=O
apparent central volume (V1/F) (C57BL/6J mice, brain; subcutaneous, 1 mg/kg, two-compartment model): 0.08 µg/(ng/g)

CCCCCCCCCCCCCCCC(=O)NCCOCCOCCOCCOCCOCCOCCOCCOCCC(=O)NCCCC[C@H](NC(=O)CNC(=O)[C@@H]1CSSC[C@H](N)C(=O)N[C@@H](Cc2ccc(O)cc2)C(=O)N[C@@H]([C@@H](C)CC)C(=O)N[C@@H](CCC(N)=O)C(=O)N[C@@H](CC(N)=O)C(=O)N1)C(=O)NCC(N)=O
steady-state volume of distribution (male Wistar Hannover rat, plasma; intravenous bolus, 0.1 mg/kg): 0.61 L/kg

CC[C@H](C)[C@H](NC(=O)[C@H](CO)NC(=O)[C@H](CCCNC(=N)N)NC(C)=O)C(=O)N[C@H]1CSSC[C@@H](C(=O)N[C@H](C(=O)NCCOCCOCCOCCOCCOCCOCCOCCOCCC(N)=O)[C@@H](C)O)NC(=O)[C@H](CCCNC(=N)N)NC(=O)[C@H](Cc2c[nH]cn2)NC(=O)[C@H](C)NC(=O)CNC(=O)[C@H](Cc2c[nH]c3ccccc23)NC(=O)[C@H](CC(=O)O)NC(=O)[C@H](CCC(N)=O)NC(=O)[C@H](Cc2c[nH]c3ccccc23)NC(=O)[C@H](C(C)C)NC1=O
apparent solubility (UV absorbance; PBS; pH 7.4): ≥ 10000 µg/mL

O=C(OCc1ccc(F)cc1)N(Cc1cccc(CN2CCCCC2)c1)[c-]1cccc1.[Fe+2].c1cc[cH-]c1
E1/2 (cyclic and differential pulse voltammetry; acetonitrile; 23 °C; baseline: ferrocene/ferrocenium): -35 mV

[11CH3]c1ccc2nc(C3CCC3)n(-c3ccc4[nH]ncc4c3)c2n1
absorbed radiation dose (human female, lungs): 4.6 µSv/MBq

CC(C)(Sc1cc[n+]([O-])cc1-c1ccc(C#N)c2ccccc12)C(=O)OC1OC(C(=O)O)C(O)C(O)C1O (stereo not shown)
renal clearance (human, urine; oral, 15 mg, 72 h, mild renal impairment): 220 mL/min

COC(=O)c1ccc(-c2cn(Cc3cc(Cl)ccc3O[11CH3])nn2)cc1
distribution volume (PET, two-tissue compartment model; rhesus monkey, brain NAc; dose not given): 0.699 mL/cm³

O=C([O-])CN1CCN(CC(=O)[O-])CCN(CC(=O)NC[C@H]2CC[C@H](C(=O)N[C@H](Cc3cnc4ccccc4c3)C(=O)NCCCC[C@H](NC(=O)N[C@@H](CCC(=O)O)C(=O)O)C(=O)O)CC2)CCN(CC(=O)[O-])CC1.[64Cu+2]
absorbed dose (PET/CT, OLINDA/EXM dosimetry; healthy human volunteers, left colon): 0.029 mGy/MBq

CC(C)CCCC(C)CCCC(C)CCO[C@@H]1O[C@H](CO)[C@@H](O[C@H]2O[C@H](CO)[C@@H](O)[C@H](O)[C@H]2O)[C@H](O)[C@H]1O (stereo partly shown)
characteristic time t* (dynamic surface tension; 0.0036 mmol/L): 335 s

C#CCOc1ccc(/C=C2\SC(=O)N(CC(=O)NCc3ccccc3)C2=O)cc1
correlation volume (inverse Kirkwood-Buff integrals; binary solvent mixture; concentration not given, 298.15 K, mole fraction x1 0.90): 5800 cm³/mol

CCCC[C@H](NC(=O)CN1CCC(NC(=O)CN2CCN(CC(=O)O)CCN(CC(=O)O)CCN(CC(=O)O)CC2)CC1)C(=O)N[C@H]1CC(=O)NCCCC[C@@H](C(N)=O)NC(=O)[C@H](Cc2c[nH]c3ccccc23)NC(=O)[C@H](CCCNC(=N)N)NC(=O)[C@@H](Cc2ccccc2)NC(=O)[C@H](Cc2c[nH]cn2)NC1=O [gallium-68 labelled]
uptake ratio (male C57BL/6J mice, B16-F10 tumours, tumour, kidney; intravenous, 1 h, blocking study, with: 100 µg non-radioactive Ga-peptide; baseline: tumour over kidney): 0.1 ± 0.1

CN[C@@H]1[C@H](O)[C@H](NC)[C@H]2O[C@]3(O)[C@H](O[C@@H]2[C@H]1O)O[C@H](C)C[C@@]3(O)CNCc1ccc(OC(F)(F)F)cc1
fraction excreted unchanged (rat, urine; intravenous, 10 mg/kg): 0.22

C=C(c1ccc(C(=O)O)c(F)c1)c1cc2c(cc1C)C(C)(C)C=CC2(C)C
blood triglycerides (Sprague-Dawley rat, male; oral, 100 mg/kg, 24 h, sesame oil vehicle): 1590 mg/dL

O=C(NCCCN(CCCCN(CCCNC(=O)c1cccc(=O)n1[O-])C(=O)c1cccc(=O)n1[O-])C(=O)c1cccc(=O)n1[O-])c1cccc(=O)n1[O-].[89Zr+4]
intact complex (radio-TLC; PBS; 1 d, pH 7.4, 37 °C, with: K^+ 10-fold excess): 98.7 ± 1.9%
